Measurements from different studies.
Protocols differ between the studies behind these lines.
GRM2: Metabotropic glutamate receptor 2 (GRM2, Homo sapiens, UniProt Q14416)
Sequence of UniProt Q14416 (whole entry, looked up): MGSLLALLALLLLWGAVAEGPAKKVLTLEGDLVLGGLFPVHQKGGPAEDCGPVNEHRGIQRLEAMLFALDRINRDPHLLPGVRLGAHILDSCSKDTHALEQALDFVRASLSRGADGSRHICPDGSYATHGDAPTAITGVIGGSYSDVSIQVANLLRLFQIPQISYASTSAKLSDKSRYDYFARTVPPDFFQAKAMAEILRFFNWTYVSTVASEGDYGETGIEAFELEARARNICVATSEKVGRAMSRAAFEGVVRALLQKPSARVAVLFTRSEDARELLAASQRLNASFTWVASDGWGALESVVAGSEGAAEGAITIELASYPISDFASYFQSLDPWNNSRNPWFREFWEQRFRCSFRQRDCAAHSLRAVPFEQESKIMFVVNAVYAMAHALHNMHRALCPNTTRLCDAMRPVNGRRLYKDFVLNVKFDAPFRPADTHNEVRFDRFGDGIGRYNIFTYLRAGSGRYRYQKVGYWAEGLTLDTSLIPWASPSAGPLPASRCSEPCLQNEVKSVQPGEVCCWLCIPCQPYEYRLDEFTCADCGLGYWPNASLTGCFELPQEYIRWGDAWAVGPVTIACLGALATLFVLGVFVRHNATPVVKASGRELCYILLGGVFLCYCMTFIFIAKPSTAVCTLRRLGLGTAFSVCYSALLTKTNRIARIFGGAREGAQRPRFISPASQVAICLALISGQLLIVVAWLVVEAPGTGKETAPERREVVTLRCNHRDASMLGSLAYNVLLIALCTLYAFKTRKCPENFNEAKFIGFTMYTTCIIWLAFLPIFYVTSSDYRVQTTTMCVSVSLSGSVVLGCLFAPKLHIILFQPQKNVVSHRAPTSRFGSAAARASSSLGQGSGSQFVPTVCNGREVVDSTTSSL

For `Cc1ccc(Oc2ccc(-c3ccn4c(CC5CC5)nnc4c3C(F)(F)F)cc2F)c(C)n1`, the brain concentration was 464 ng/g (rat Sprague Dawley male, brain; subcutaneous, 10 mg/kg, 1 h).
With `Cc1nc(C#N)cnc1Cl` the delta Tm was 4.98 °C (Cellular tumor antigen p53, DNA-binding domain (TP53, Homo sapiens, UniProt P04637, M133L/N239Y/N268D/V203A/Y220C); DSF; 1000 µM, 24 h).
The EC50 of `Cc1cc(Oc2ccc(-c3ccn4c(CC5CC5)nnc4c3C(F)(F)F)cc2F)ccn1` is reported as 55 nM (GRM2; GTPγS binding, positive allosteric modulator; added: EC20 glutamate).
With `COc1cccc(-c2ccc3nc(NC(=O)C4CCCCC4)nn3c2)c1` the IC50 was 360 nM (crk3 (Leishmania mexicana, UniProt O15851); enzyme activity, inhibitor, radiometric).
With `FC(F)(F)c1c(-c2ccc3c(ccn3-c3cccnc3)c2)ccn2c(CC3CC3)nnc12` the Emax was 64% (GRM2; agonist; no glutamate).
With `O=C(Nc1cc(-c2ccccc2)n[nH]1)C1COc2ccccc2O1` (centres unmarked) the IC50 was 1600 nM (Cyclin-dependent kinase 2, with cyclin A (CDK2, Homo sapiens, UniProt P24941); kinase activity, inhibitor).
With `CCCCn1ccn2c(-c3ccc4[nH]ccc4c3)c(C)nc2c1=O` the metabolized fraction was 97% (rat liver microsomes; 5 µM, 15 min).
`O=C(O)COc1ccc(Br)cc1C=NNC(=O)Cc1ccccc1` (mixture of isomers): “Iba-1 level reduction” 49.8% (ELISA; mouse, pilocarpine epilepsy model, hippocampus; oral, 20 mg/kg; relative to: epileptic controls).

A few entries again:
`O=C(O)COc1ccc(Br)cc1C=NNC(=O)Cc1ccccc1` (mixture of isomers): “Iba-1 level reduction” 49.8% (ELISA; mouse, pilocarpine epilepsy model, hippocampus; oral, 20 mg/kg; relative to: epileptic controls).
